Published values gathered from unrelated publications.
Lines come from different studies, so protocols differ.
B1: qcr9 (Schizosaccharomyces pombe, UniProt O74433); sequence looked up; chain MASSTIYNIFFRRNSSFYATIFVSAFFAKIGFDVFTDSVWKRANAGLTWDEVKPRFLNKDEDAEDDE
B2: PduE (Salmonella enterica, UniProt O31042); sequence looked up; chain MNTDAIESMVRDVLSRMNSLQGDAPAAAPAAGGTSRSAKVSDYPLANKHPEWVKTATNKTLDDFTLENVLSNKVTAQDMRITPETLRLQASIAKDAGRDRLAMNFERAAELTAVPDDRILEIYNALRPYRSTKEELLAIADDLENRYQAKICAAFVREAAGLYVERKKLKGDD
B3: ND3 1-128 (Yarrowia lipolytica, UniProt Q9B6C7); sequence looked up; chain MNTFIIFIILIPIVGFALLAVNILLAVYKPYNEKLGAFECGLTSFNQTRLAFNAAFILVAILFLPFDLEISTLLPYVMSIYLVSNYGFTIVLLFLLILIIGFVYEINTNALKINKHNKPNTDSLIYKL
B4: PSMG3 1-122 (Homo sapiens, UniProt Q9BT73); chain MEDTPLVISKQKTEVVCGVPTQVVCTAFSSHILVVVTQFGKMGTLVSLEPSSVASDVSKPVLTTKVLLGQDEPLIHVFAKNLVAFVSQEAGNRAVLLAVAVKDKSMEGLKALREVIRVCQVW
B5: SNAPC5 (Homo sapiens, UniProt O75971); chain MLSRLQELRKEEETLLRLKAALHDQLNRLKVEELALQSMISSRRGDEMLSSHTVPEQSHDMLVHVDNEASINQTTLELSTKSHVTEEEEEEEEEESDS
B6: UBASH3A 276-340 (Homo sapiens, UniProt P57075); chain VHYQTLRALFQYKPQNVDELTLSPGDYIFVDPTQQDEASEGWVIGISQRTGCRGFLPENYTDRAS
B7: DMC1 (Saccharomyces cerevisiae, UniProt P25453); sequence looked up; chain MSVTGTEIDSDTAKNILSVDELQNYGINASDLQKLKSGGIYTVNTVLSTTRRHLCKIKGLSEVKVEKIKEAAGKIIQVGFIPATVQLDIRQRVYSLSTGSKQLDSILGGGIMTMSITEVFGEFRCGKTQMSHTLCVTTQLPREMGGGEGKVAYIDTEGTFRPERIKQIAEGYELDPESCLANVSYARALNSEHQMELVEQLGEELSSGDYRLIVVDSIMANFRVDYCGRGELSERQQKLNQHLFKLNRLAEEFNVAVFLTNQVQSDPGASALFASADGRKPIGGHVLAHASATRILLRKGRGDERVAKLQDSPDMPEKECVYVIGEKGITDSSD
B8: SF3B1 454-1304 R625H (Homo sapiens, UniProt O75533); chain KSVNDQPSGNLPFLKPDDIQYFDKLLVDVDESTLSPEEQKERKIMKLLLKIKNGTPPMRKAALRQITDKAREFGAGPLFNQILPLLMSPTLEDQERHLLVKVIDRILYKLDDLVRPYVHKILVVIEPLLIDEDYYARVEGREIISNLAKAAGLATMISTMRPDIDNMDEYVHNTTARAFAVVASALGIPSLLPFLKAVCKSKKSWQARHTGIKIVQQIAILMGCAILPHLRSLVEIIEHGLVDEQQKVRTISALAIAALAEAATPYGIESFDSVLKPLWKGIRQHRGKGLAAFLKAIGYLIPLMDAEYANYYTREVMLILIREFQSPDEEMKKIVLKVVKQCCGTDGVEANYIKTEILPPFFKHFWQHRMALDRRNYRQLVDTTVELANKVGAAEIISRIVDDLKDEAEQYRKMVMETIEKIMGNLGAADIDHKLEEQLIDGILYAFQEQTTEDSVMLNGFGTVVNALGKRVKPYLPQICGTVLWRLNNKSAKVRQQAADLISRTAVVMKTCQEEKLMGHLGVVLYEYLGEEYPEVLGSILGALKAIVNVIGMHKMTPPIKDLLPRLTPILKNRHEKVQENCIDLVGRIADRGAEYVSAREWMRICFELLELLKAHKKAIRRATVNTFGYIAKAIGPHDVLATLLNNLKVQERQNRVCTTVAIAIVAETCSPFTVLPALMNEYRVPELNVQNGVLKSLSFLFEYIGEMGKDYIYAVTPLLEDALMDRDLVHRQTASAVVQHMSLGVYGFGCEDSLNHLLNYVWPNVFETSPHVIQAVMGALEGLRVAIGPCRMLQYCLQGLFHPARKVRDVYWKIYNSIYIGSQDALIAHYPRIYNDDKNTYIRYELDYIL
B9: Secisbp2 586-846 (Rattus norvegicus, UniProt Q9QX72); sequence looked up; chain VEGESEEPAGTEFQRDPEACQPAPDSATFPKIHSRRFRDYCSQMLSKEVDACVTGLLKELVRFQDRMYQKDPVKAKTKRRLVLGLREVLKHLKLRKLKCIIISPNCEKTQSKGGLDDTLHTIIDCACEQNIPFVFALNRKALGRSLNKAVPVSIVGIFSYDGAQDQFHKMVELTMAARQAYKTMLETMRQEQAGEPGPQTPPSPPMQDPIQSTDEGTLASTGEEPHYIEIWRKHLEAYSQHALELEDSLEASTSQMMNLNL
B10: NFE2L2 99-160 (Homo sapiens, UniProt Q16236); chain GSANYSQVAHIPKSDALYFDDCMQLLAQTFPFVDDNEVSSATFQSLVPDIPGHIESPVFIATN
B11: CCDC22/CCDC93 DBD dimer E410R (Homo sapiens); chain 1 GAGAKTGAPKGSRFTHSEKFTFHLEPQAQATQVSDVPATSRRPEQVTWAAQEQELESLREQLEGVNRSIEEVEADMKTLGVSFVQAESECRHSKLSTAEREQALRLKSRAVELLPDGTANLAKLQLVVENSAQRVIHLAGQWEKHRVPLLAEYRHLRKLQDCRELES; chain 2 SPEKLGTSQLHRRKVISLNKQIAQKTKHLEELRASHTSLQARYNEAKKTLTELKTYSEKLDKEQAALEKIESKADPSILQNLRALVAMNENLKSQEQEFKAHCRERMTRLQQEIENLKAERAPRGDEKT
B12: rasC Q62L/E157R (Dictyostelium discoideum, UniProt P32253); sequence looked up; chain MSKLLKLVIVGDGGVGKSALTIQLTQNQFIAEYDPTIENSYRKQVNIDEEVYMLDILDTAGLEEYSAMRDQYIRSGRGFLIVYSIISRASFEAVTTFREQILRVKDLSTYPIVIIGNKADLPDKDRKVPPMEGKELAKSFGAPFLETSAKSRVNVERAFFTLVREIKRWNQNPQNEEMLPPKKRGCIIL
B13: SIN4 1-974 (Saccharomyces cerevisiae, UniProt P32259); chain MMLGEHLMSWSKTGIIAYSDSQSSNANICLTFLESINGINWRFHTPQKYVLHPQLHEVQYQESSSTLSTHSTTTSVNGSTTAGVGSTPNFGGNSNKSPPQFFYNISSIHWNNWFSLPGDMLAVCDELGNMTMLITGQRPDRATTYEKLTMVFQDNVYKIYNHVMPLKPVDKLKPMNIERKQTRKEYNTSILEFRWLTSSKSVIVSQFCAFDSSSNTYRSRAQQVPPYGVYHPPFIKYACLAIRKNGQIDFWYQFSNSKDHKKITLQLLDTSNQRFKDLQWLEFARITPMNDDQCMLITTYSKLSKNISFYKLHVNWNLNATKPNVLNDPSLKIQFILSTTLDPTDDEGHVLKLENLHVVSKSSIEKDPSPEILVLYNVCDTSKSLVKRYRLAPTQLSAEYLVILKPDLNIDRNNSTNQIFQSRRYNLRRHSDIVLDKKVTLITSEMFDAFVSFYFEDGTIESYNQNDWKLETERLISQSQLGKFKNIIASPLSAGFNYGKLPLPPSVEWMKVSPSMCGVIVKQYNKKWPQFYAAVQKNYADPEKDSINATALAFGYVKSLHKQISAEDLTIAAKTHILRISFLDRKRAKEFITTLLKSLYSFFNISPDAPKEIMDKIITSRPLQKIMLLQLELGSCFSQENIEEMARVILYLKNVLFAFNGVARNFHFAIEQISNNSNQQQNPKLFQTIFSKQDLIHSLIPVAKWFVKFITYLTQEILILINDPTNKEYTLVHGIFGAKMSRTLILSILNEIKKVTQIVAKFPETSYPILNESSTFLKLVLSESPVDFEKFETFLVDVNNKFIALCEQQPSQEREFSLLVKAEIPPEYAKVGDFLLQYANNAVISHANAAAVYFADTSGLKISNSEFFNPEIFHLLQPLEEGLIIDTDKLPIKNRTSKSFSKLLYDDVTCDKLSVSEISDGKLKRCSRCGSVTRAGNIISSDKTIVPTSIQTKRWPTMYTRLCICSGMLFEMDG
Chain of UniProt Q08345 (whole entry, unmodified, looked up): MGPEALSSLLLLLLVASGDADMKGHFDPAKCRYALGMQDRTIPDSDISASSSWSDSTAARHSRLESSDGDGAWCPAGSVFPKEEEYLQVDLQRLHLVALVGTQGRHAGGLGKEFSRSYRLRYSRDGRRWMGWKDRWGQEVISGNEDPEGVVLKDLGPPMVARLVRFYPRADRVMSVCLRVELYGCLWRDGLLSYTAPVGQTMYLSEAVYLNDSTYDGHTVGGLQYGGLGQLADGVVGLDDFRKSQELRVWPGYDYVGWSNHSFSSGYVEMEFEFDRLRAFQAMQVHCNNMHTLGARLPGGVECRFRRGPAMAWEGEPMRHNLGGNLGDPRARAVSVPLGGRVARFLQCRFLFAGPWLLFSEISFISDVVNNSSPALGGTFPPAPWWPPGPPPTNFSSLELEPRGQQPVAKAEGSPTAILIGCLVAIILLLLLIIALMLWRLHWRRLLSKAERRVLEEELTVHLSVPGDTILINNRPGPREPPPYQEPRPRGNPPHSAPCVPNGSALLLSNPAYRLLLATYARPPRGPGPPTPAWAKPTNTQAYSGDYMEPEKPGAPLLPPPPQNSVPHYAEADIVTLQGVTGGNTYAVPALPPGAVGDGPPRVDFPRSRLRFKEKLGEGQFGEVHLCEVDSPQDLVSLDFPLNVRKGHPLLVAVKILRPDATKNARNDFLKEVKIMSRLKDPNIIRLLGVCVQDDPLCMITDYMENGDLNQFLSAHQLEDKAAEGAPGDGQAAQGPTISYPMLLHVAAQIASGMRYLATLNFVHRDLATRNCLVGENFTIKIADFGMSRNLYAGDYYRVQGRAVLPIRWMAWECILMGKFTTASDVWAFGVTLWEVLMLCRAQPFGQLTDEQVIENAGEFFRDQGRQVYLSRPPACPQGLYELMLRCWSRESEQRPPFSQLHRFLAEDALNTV
Chain of UniProt Q8TCE6 (whole entry, looked up): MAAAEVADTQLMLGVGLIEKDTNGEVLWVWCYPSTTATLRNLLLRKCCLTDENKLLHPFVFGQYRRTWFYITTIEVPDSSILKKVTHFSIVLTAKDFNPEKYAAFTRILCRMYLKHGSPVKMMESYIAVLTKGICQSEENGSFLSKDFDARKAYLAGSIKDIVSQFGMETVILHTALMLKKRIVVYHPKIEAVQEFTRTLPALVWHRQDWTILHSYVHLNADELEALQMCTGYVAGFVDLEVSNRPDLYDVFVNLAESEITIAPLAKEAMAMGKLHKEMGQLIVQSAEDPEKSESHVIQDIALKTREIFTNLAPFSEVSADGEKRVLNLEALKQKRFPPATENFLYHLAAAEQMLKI
Chain of UniProt Q7RTV0 (whole entry, looked up): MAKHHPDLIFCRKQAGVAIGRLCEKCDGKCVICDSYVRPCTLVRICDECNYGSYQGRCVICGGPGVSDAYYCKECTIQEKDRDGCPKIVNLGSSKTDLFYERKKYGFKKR
Chain of UniProt Q5SXM2 (whole entry, looked up): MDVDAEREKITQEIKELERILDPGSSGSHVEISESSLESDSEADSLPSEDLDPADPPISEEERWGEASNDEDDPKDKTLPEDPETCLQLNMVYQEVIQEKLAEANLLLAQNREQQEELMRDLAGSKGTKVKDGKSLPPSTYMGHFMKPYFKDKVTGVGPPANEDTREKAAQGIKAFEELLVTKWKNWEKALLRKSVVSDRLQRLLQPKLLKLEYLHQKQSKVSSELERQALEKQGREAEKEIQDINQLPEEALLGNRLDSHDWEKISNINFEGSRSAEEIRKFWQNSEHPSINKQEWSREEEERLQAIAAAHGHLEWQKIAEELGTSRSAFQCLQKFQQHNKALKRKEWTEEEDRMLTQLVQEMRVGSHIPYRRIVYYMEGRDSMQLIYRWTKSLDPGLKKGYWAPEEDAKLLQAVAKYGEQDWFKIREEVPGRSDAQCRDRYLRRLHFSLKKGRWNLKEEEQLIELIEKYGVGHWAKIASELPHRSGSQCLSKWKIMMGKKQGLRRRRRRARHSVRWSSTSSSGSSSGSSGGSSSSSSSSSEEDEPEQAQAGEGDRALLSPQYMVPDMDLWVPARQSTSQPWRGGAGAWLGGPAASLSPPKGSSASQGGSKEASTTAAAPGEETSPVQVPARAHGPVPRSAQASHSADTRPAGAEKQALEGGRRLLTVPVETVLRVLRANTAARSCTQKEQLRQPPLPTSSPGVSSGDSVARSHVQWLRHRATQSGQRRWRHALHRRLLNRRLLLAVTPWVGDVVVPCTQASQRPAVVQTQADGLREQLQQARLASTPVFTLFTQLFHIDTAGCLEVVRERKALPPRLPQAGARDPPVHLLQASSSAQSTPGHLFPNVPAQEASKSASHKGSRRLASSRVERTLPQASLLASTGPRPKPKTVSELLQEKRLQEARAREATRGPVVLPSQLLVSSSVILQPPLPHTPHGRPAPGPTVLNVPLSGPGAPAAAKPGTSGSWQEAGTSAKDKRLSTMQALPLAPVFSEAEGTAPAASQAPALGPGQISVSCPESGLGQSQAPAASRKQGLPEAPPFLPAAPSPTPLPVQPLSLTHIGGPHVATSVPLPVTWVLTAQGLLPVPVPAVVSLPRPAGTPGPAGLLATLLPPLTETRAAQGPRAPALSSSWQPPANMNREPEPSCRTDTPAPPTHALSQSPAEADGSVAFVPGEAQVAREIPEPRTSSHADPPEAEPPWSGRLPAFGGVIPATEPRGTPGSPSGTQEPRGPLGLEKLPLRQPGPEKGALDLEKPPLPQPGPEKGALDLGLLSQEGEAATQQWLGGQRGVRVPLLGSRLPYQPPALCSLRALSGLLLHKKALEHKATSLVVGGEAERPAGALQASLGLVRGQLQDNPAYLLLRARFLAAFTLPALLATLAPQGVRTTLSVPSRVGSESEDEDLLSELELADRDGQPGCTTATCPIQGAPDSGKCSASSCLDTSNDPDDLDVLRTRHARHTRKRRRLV
Chain of UniProt Q6ZLB0 (whole entry, looked up): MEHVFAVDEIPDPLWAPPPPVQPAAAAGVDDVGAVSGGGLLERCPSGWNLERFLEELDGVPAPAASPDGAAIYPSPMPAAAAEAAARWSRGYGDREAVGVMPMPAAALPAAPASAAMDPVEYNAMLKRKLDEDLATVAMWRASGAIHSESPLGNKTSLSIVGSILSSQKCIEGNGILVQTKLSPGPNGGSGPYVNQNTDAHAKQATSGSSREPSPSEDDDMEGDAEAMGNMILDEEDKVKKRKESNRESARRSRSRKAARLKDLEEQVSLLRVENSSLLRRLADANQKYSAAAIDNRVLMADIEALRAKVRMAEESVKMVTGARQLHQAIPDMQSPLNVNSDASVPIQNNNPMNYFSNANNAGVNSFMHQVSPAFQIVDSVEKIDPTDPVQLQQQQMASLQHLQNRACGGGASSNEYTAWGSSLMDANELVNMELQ
Chain of UniProt Q9B6E8 (whole entry, looked up): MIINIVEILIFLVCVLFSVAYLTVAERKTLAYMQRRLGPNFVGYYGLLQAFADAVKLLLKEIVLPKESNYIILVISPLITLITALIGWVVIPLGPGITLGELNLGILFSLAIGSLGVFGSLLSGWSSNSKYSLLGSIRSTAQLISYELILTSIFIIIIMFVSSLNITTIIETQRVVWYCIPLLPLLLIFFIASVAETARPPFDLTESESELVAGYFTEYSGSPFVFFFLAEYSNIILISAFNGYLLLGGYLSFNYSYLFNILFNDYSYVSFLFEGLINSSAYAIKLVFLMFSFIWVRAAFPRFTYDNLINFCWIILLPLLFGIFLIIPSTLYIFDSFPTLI
Chain of UniProt Q6P2E9 (whole entry, looked up): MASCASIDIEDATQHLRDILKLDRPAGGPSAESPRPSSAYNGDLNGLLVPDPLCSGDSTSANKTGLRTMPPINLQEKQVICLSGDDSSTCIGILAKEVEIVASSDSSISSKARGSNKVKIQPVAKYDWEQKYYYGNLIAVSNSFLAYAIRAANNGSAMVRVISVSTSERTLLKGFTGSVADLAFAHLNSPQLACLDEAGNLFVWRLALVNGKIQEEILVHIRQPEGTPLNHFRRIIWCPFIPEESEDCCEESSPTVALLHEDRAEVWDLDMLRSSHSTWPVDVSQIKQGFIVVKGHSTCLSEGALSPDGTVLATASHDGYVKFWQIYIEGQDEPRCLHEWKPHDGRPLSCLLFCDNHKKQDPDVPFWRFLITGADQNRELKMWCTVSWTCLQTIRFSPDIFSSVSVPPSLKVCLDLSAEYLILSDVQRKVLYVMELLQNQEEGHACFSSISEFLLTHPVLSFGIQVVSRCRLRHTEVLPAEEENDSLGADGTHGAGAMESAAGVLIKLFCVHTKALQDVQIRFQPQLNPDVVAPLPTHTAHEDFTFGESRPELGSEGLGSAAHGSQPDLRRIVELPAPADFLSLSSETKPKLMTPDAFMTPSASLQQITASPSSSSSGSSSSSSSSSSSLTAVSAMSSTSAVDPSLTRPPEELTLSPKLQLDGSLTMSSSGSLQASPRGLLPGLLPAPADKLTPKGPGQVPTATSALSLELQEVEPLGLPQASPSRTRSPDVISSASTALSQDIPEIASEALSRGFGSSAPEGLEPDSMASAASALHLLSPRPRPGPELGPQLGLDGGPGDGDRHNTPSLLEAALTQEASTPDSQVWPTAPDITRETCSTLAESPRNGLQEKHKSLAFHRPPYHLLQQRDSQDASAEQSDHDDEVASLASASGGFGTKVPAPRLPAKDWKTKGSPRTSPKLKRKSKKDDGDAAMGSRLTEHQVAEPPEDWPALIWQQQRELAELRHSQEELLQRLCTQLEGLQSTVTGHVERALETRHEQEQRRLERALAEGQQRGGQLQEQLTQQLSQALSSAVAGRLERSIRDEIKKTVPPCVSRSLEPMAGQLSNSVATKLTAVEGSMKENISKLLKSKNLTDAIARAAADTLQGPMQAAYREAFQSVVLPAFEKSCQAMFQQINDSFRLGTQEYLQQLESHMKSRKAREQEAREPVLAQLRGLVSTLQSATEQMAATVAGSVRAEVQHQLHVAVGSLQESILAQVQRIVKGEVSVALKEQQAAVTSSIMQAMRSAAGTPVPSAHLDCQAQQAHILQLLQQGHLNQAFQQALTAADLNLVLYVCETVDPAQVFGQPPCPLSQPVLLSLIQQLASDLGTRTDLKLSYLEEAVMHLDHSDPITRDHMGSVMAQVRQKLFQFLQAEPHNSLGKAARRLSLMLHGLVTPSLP

Substance = B1 (qcr9); partner = COX5 mature (Schizosaccharomyces pombe, UniProt O74988); method = cryo-EM; binding = binds
Substance = B2 (PduE); partner = PduB (Salmonella enterica Typhimurium LT2, UniProt P37449); method = cross-linking; binding = binds
Substance = B3 (ND3 1-128); partner = ND1 1-341 (Yarrowia lipolytica, UniProt Q9B6E8); method = cryo-EM; binding = binds
Substance = B4 (PSMG3 1-122); partner = PSMG4 1-123 (Homo sapiens, UniProt Q5JS54); method = cryo-EM; binding = binds
Substance = B5 (SNAPC5); partner = SNAPC4 (Homo sapiens, UniProt Q5SXM2); method = cross-linking; binding = binds
Substance = bZIP50 (Oryza sativa, UniProt Q69XV0); partner = RISBZ1 (Oryza sativa, UniProt Q6ZLB0); method = pull-down; notes = in vitro; binding = binds
Substance = SKKNNAASELANPYSSYVSQIRKHKRVSPNAAPR (NUP60 285-318 (Saccharomyces cerevisiae, UniProt P39705); sequence looked up); partner = NUP85/SEH1 Nup85 1-564 (Saccharomyces cerevisiae); method = pull-down; form = peptide; binding = binds
Substance = B6 (UBASH3A 276-340); partner = PIK3R1 80-724 (Homo sapiens, UniProt P27986); method = ITC; binding = binds
Substance = B7 (DMC1); partner = MLH1/MLH3 (Saccharomyces cerevisiae); method = co-IP; binding = binds
Substance = B8 (SF3B1 454-1304 R625H); partner = PHF5A (Homo sapiens, UniProt Q7RTV0); method = cryo-EM; binding = binds
Substance = GSPTAILIGSLVAIILLLLLIIALVLWRLHWRR (DDR1 413-445 C422S/M437V (Homo sapiens, UniProt Q08345); sequence looked up); partner = DDR2 395-427 C404S (Homo sapiens, UniProt Q16832); method = NMR titration; binding = binds
Substance = B9 (Secisbp2 586-846); partner = Eefsec (Mus musculus, UniProt Q9JHW4); method = EMSA; binding = binds
Substance = B10 (NFE2L2 99-160); partner = EP300 TAZ2 1723-1812 x (Homo sapiens, UniProt Q09472); method = circular dichroism; binding = binds
Substance = SSHSSLTERHKILHRLLQEGSPSDITTLSVEPD (NCOA1 678-710 (Homo sapiens, UniProt Q15788); sequence looked up); partner = NR1I2 130-434 L411W (Homo sapiens, UniProt O75469); method = crystal structure; form = peptide; binding = binds
Substance = B11 (CCDC22/CCDC93 DBD dimer E410R); partner = DENND10 (Homo sapiens, UniProt Q8TCE6); method = pull-down; binding = binds
Substance = B12 (rasC Q62L/E157R); partner = racE T25N/S192D/R186E (Dictyostelium discoideum); method = pull-down; binding = binds
Substance = KPPKKRCLLAPRWDYPEGTP (NBDY 22-41 (Homo sapiens, UniProt A0A0U1RRE5); sequence looked up); partner = EDC4 974-1401 (Homo sapiens, UniProt Q6P2E9); method = pull-down; binding = binds
Substance = NEIL2 (Homo sapiens, UniProt Q969S2); partner = ERCC6 (Homo sapiens, UniProt Q03468); method = far-Western blot; binding = binds
Substance = NUP62 (Homo sapiens, UniProt P37198); partner = FUS (Homo sapiens, UniProt P35637); method = pull-down; binding = binds
Substance = B13 (SIN4 1-974); partner = GAL11 (Saccharomyces cerevisiae, UniProt P19659); method = cross-linking; binding = binds
Substance = KKAQPISVTMVTPADLEPPQAKK (TonB residues 42-60 (Escherichia coli)); partner = exbD 61-141 (Escherichia coli, UniProt P0ABV2); method = crystal structure; form = peptide; binding = binds
Substance = KBTBD2 S252D (Homo sapiens) (sequence not shown); partner = PIK3R1 (Homo sapiens, UniProt P27986); method = SEC; binding = binds

For quick reference, copied from above:
Substance = B10 (NFE2L2 99-160); partner = EP300 TAZ2 1723-1812 x (Homo sapiens, UniProt Q09472); method = circular dichroism; binding = binds
